Assay results of several laboratories.
Lines come from different studies, so protocols differ. “And” joins repeats or separate records; there may be more than shown. ± marks the error that the study gave.

SMILES	target or system	test	system	setting	scale	endpoint	result
c1coc(-c2n[nH]cc2-c2ccnc3ccccc23)c1	VPS15 (Candida albicans)	kinase binding, MIB/MS competition	Candida albicans lysate	10 µM	relative to: DMSO	log2 fold change	-0.1
CC(=O)c1nn(-c2ccc(Cl)cc2)/c(=N/N=C(\C)c2ccc(NC(=O)c3ccc(Cl)cc3)cc2)s1	HepG2	–	–	0.312 µM	–	toxicity	1.41%
CCn1cc(-c2cc(Cn3ccnc3)cc3c2CCN([C@H](c2cc(OC)ccn2)C2CC2)C3=O)c(C(F)(F)F)n1	COV362	cell growth, inhibitor	–	120 h	–	EC50	29.5 µM
C=CC(=O)c1cccnc1Nc1cc(C(F)(F)F)ccc1OCc1ccccc1	MCF7	firefly luciferase reporter	–	100 µM, 6 h	relative to: vehicle	TEAD reporter activity	1.8 ± 0.1%
C=C(CC)C(=O)c1ccc(OCC(=O)O)c(Cl)c1Cl	human neutrophils	sulfate/chloride exchange, competitive inhibitor	–	–	–	Ki	~7 µM
Cn1cc(-n2cnc3c(NCc4nc5cc(Cl)c(Cl)cc5[nH]4)nc(N4CCOCC4)nc32)cn1	MDA-MB-468	cell viability, CellCounting-Lite	–	24.69 nM, 37 °C	higher = more viable cells	luminescence signal	149000 a.u. and 150000 a.u. and 148000 a.u.
COc1ccc(NC(=O)c2c(Nc3ccccc3)sc(C#N)c2NC(=O)CNc2ccc(Cl)cc2)cc1	HepG2	annexin V-FITC/PI	–	concentration not given	–	necrotic cells	3.14 ± 1.3%
Nc1nc(C(F)(F)F)nc2c1nnn2C[C@H]1CN(Cc2nccs2)CCO1	SAOS-2	activator, GloSensor	–	concentration not given, added: PTH	–	cAMP level	increased
O=C(/C=C/C=C/C=C/C1CCCCC1)NC1=C[C@@](O)(/C=C/C=C/C=C/C(=O)NC2=C(O)CCC2=O)[C@@H]2O[C@@H]2C1=O	WM-1799	cell growth, CellTiter-Glo	–	78 h	–	GI50	8.63 µM
O=C(Nc1nnc2[nH]c(=S)[nH]c(-c3ccc(Cl)cc3)c1-2)c1ccccc1	MDA-MB-231/ATCC	NCI60 SRB	–	10 µM	–	growth percent	91.3%
CCc1cnc(N2CCC(c3nc(COc4ccc(-n5cnnn5)cc4)cs3)CC2)nc1	HEK-293T	RNA-seq GSEA, measured: HALLMARK_MITOTIC_SPINDLE	–	concentration not given	direction not given	normalized enrichment score	0.759
O=C(C[C@@H](C(F)F)n1ccc(F)n1)N1CCC(O)(Cn2cnc3c(cnn3-c3ccc(F)cc3)c2=O)CC1	CHP-212 parental (wild-type USP7)	PI flow cytometry	–	0.1 µM, 24 h	–	cells in G2/M phase	10.6% and 16.3% and 13.9%
CCCCCCNc1nc(NC2CCN(C)CC2)c2cc(OC)c(OC)cc2n1	Toxoplasma gondii	parasite growth	HFF, bradyzoite, alkaline-induced	–	–	EC90	1.19 µM
COc1ccc([C@@H](O)c2cc(-c3ncnc4cc(N5CCOCC5)ccc34)c(F)cc2Cl)nn1	M12	clonogenic survival	–	16 h, 50% unbound in medium	–	free concentration for maximal radiosensitization	150 nM
CCOC(=O)c1cccc(NC(=O)c2scc(C)c2S(=O)(=O)N(C)c2ccc(OCC)cc2)c1	CCF-STTG1	ABCA1 promoter	–	concentration not given	–	reporter gene activity	inhibited
CCCCc1oc2ccc(NS(C)(=O)=O)cc2c1C(=O)c1ccc(OCCCN(CCCC)CCCC)cc1	human embryonic stem cell aggregates	mRNA level, microarray, measured: UBL3	–	0.5 µM, 120 h	relative to: untreated, up-regulated	fold change	2.1 fold
COc1cnc2cccc(N3CCc4c(cc(Cn5ccnc5C)cc4-c4cn(C)nc4C(F)(F)F)C3=O)c2c1	COLO-668	cell growth, inhibitor	–	120 h	–	EC50	0.45 µM
CC1(C)CCC2=C(O1)c1ccccc1C(=O)C2=O	Toxoplasma gondii	parasite growth	HFF, bradyzoite, glutamine-induced	–	–	EC90	64.1 µM
Cc1cccc(-c2[nH]c(CNc3ccccc3F)nc2-c2ccc3ncnn3c2)n1	MM1.S	XTT	–	0.2 µM	relative to: untreated	viability	91%
C#C[C@@]1(O)[C@@H](CO)O[C@@H](n2cc(F)c3c(N)ncnc32)[C@@H]1O	Malme-3M	SRB	–	NCI-60 screen	–	TGI	1.81 µM
Cn1cc(-c2ccc(-c3cncc(Cl)c3N3CCC4(CCNC4=O)CC3)cc2)cn1	COLO 205	gene expression, microarray, measured: HIST1H4H mRNA	–	concentration not given, 6 h	relative to: untreated cells	log2 fold change	-2.48
COc1ccc(OC)c(-c2nc3ccc(-c4nc5ccc(N6CCN(C)CC6)cc5[nH]4)cc3[nH]2)c1	Malme-3M	SRB	–	10 µM, 48 h	–	growth percent	109%
Cc1cc(NC(=O)c2cccc(NC(=O)/C=C/CN(C)C)c2)ccc1Nc1nccc(-c2cccnc2)n1	HEK293 AP1 reporter cells	AP-1 reporter gene, inhibitor	–	3 µM, 6 h, unit not given, added: PMA	relative to: PMA alone	reporter activity	0.95
COC(=O)Nc1nc2ccc(C(=O)c3cccs3)cc2[nH]1	tsFT210 G2-synchronised	flow cytometry	–	100 nM, 4 h after release at 32 °C	–	sub-G1 cells	2.9%
c1ccc2[nH]ccc2c1	HCT-8	RNA-seq, measured: PPP1R32	–	concentration not given	–	mRNA level, LS mean	1.54 counts per million
CC/C(=N\NC(=O)C(C)Nc1ccccc1)c1ccc(O)c(C)c1O (stereo not shown)	SK-OV-3	Western blot	–	10 µM, 6 h, 3D gellan gum culture, unit not given	relative to: DMSO	TAZ band intensity	0.24 ± 0.03

SMILES	target or system	test	system	setting	scale	endpoint	result
Cc1cc(C)n(-c2nc(-c3ccc(Cl)cc3)c3c(NC(=O)c4ccccc4)nnc-3[nH]2)n1	Malme-3M	SRB	–	10 µM, NCI60 single-dose screen	relative to: untreated	cell growth	77.8%
COc1c(C)c(OC(=O)c2ccc(C)cc2)c(C)c(O)c1C(=O)/C=C/c1ccccc1	FaDu	SRB	–	–	relative to: normal over FaDu IC50	selectivity index	1.15
O=C(O)Cc1ccccc1Nc1c(Cl)cccc1Cl	HepG2	high content imaging, measured: nuclear size	–	24 h, distribution mode 1	–	point of departure	209 µM and 138 µM
Cn1cc(Nc2nccc(-c3ccc4c(c3)CN(C3COC3)CC[C@H]4NC(=O)c3cn(C(C)(C)C)nn3)n2)cn1	mouse splenic B cells	measured: Netrin signalling	–	30 mg/kg, IgD-activated in vivo	relative to: vehicle, direction not given	pathway activation z-score	2.33
CCCCc1nc(Cl)c(CO)n1Cc1ccc(-c2ccccc2-c2nn[nH]n2)cc1	human PBMC	RNA-seq, measured: CEMIP mRNA	–	10 µg/mL, 24 h	relative to: untreated control	log2 fold change	1.51
Nc1cccc2c1C(=O)N(C1CCC(=O)NC1=O)C2=O (stereo not shown)	bone marrow CD138+ myeloma cells	XTT	–	1.2 µM, mean of three patients	–	viability	77%
COC1=CC(=O)C=C(OC)C1=O	MCF-10A	CellTiter-Glo	–	concentration not given	relative to: normalised, mean of replicates	viability	80.2%
COc1c(C)c(OC(C)=O)c(C)c(O)c1C(=O)/C=C/c1ccccc1	FaDu	SRB	–	–	relative to: normal over FaDu IC50	selectivity index	0.85
Cc1nn(-c2nc3c(F)cc(F)cc3s2)c(O)c1C(c1ccc(C(F)(F)F)cc1)c1c(C)nn(-c2nc3c(F)cc(F)cc3s2)c1O	RAW-ISG	western blot	–	10 µM, added: HT-DNA	relative to: vehicle	phospho-TBK1/TBK1 ratio	0.846 and 1.04 and 0.832
O=C1N(Cc2ccccc2Cl)c2ccccc2C12NN=C(c1ccccc1)S2 (stereo not shown)	SK-N-BE(2) and SK-N-SH neuroblastoma	MTT	–	10 µM, 24 h	–	viability loss	50 to 60%
Cc1[nH]c2ccccc2c1CCNCc1ccc(/C=C/C(=O)NO)cc1	A2780/CP	annexin V/PI flow cytometry	–	concentration not given, 48 h	relative to: untreated	early apoptotic cells	28.7 ± 2%
CC(C)NCC(O)c1ccc(O)c(O)c1 (stereo not shown)	mouse ventricular cardiomyocytes	–	–	dose not given, 0.104 s	–	sarcomere length	1.7 µm
CCn1cc(-c2cc(Cn3ccoc3=N)cc3c2CCN([C@@H](C)c2cc(OC)ccn2)C3=O)c(C(F)(F)F)n1	SK-HEP1	cell growth, inhibitor	–	120 h	–	EC50	0.541 µM
N#Cc1ccc(C[C@H](NC(=O)c2cc3cc([N+](=O)[O-])ccc3[nH]2)C(=O)N2CCc3ccccc32)cc1	human neutrophils	calcium mobilization, agonist	–	–	–	EC50	> 50 µM
NC(N)=NC(=O)c1nc(Cl)c(N2CCCCCC2)nc1N	human neutrophils	–	–	10 µM, pHo 6.70, added: 100 mM sulfate	–	intracellular acidification	no effect
CC(=O)c1n[nH]c2ccc(-c3cnc4ccc(N(C)C5CCOCC5)nn34)cc12	DAP12-Fluc expressing cells	–	–	concentration not given, counter-screen	–	change in reporter signal	24 ± 6%
Cc1cc(Nc2ncc(Cl)c(Nc3ccccc3S(=O)(=O)C(C)C)n2)c(OC(C)C)cc1C1CCNCC1	CLB-BAR	phosphoproteomics LC-MS/MS, measured: SUN2 phosphorylation	–	200 nM, 60 min	relative to: untreated	log2 fold change	-2.51
NC(=O)c1ncn([C@@H]2O[C@H](CO)[C@@H](O)[C@H]2O)n1	FaDu	CCK-8	–	10 µM, 96 h, parental cells, added: cytarabine 40 nM	–	growth inhibition	50%
Cc1ccc(NC(=O)[C@H]2CCCN(C(=O)c3c(C)cccc3F)[C@H]2c2ccc(NC3CCCC3)cc2)cc1C(F)(F)F	human peripheral blood neutrophils	flow cytometry FSC/SSC	–	0.1 µM, added: TNF-α 5 ng/mL, MPO-ANCA immune complex	relative to: unstimulated neutrophils	neutrophil swelling	2.74 fold change and 2.96 fold change and 3.99 fold change and 2.69 fold change
C[C@H]1Oc2cc(cnc2N)-c2c(nn(C)c2C#N)CN(C)C(=O)c2ccc(F)cc21	Ba/F3 EML4-ALK v1	cell viability	–	–	–	Hill slope	1.84
Cn1c(Nc2nc3ccc(C(F)(F)F)cc3s2)nc2cc(C(=O)NCCOCCO)ccc21	SH-SY5Y	RNA-seq, measured: KLF6 mRNA	–	5 µM, 5 h	relative to: untreated cells	fold change	1.86
Cc1cc(Nc2ncc(Cl)c(Nc3ccccc3S(=O)(=O)C(C)C)n2)c(OC(C)C)cc1C1CCNCC1	Ba/F3 EML4-ALK v1	cell viability	–	–	–	Emax	100%
CN(C)C(=O)c1cc2cnc(Nc3ccc(N4CCNCC4)cn3)nc2n1C1CCCC1	human neutrophils	enzyme immunoassay	–	1 to 10 µM, added: fMLF	–	cAMP level	increased
Cc1cc(C)nc(SCC(=O)Nc2ncc(Cc3cccc(OCc4cn(Cc5ccc(OCCN6CCOCC6)cc5)nn4)c3)s2)n1	PC-3M-luc	colony formation, colony forming	–	25 µM	–	inhibition	94.2 ± 2.6%
Nc1ncnc2c1ncn2[C@@H]1O[C@H](CO)[C@@H](O)[C@H]1O	activated human T cells	measured: carbamoyl aspartate	–	50 µM	relative to: DMSO	log2 fold change	7.1 and 8.7 and 7.4
CC(=O)c1nn(-c2ccccc2Cl)/c(=N/N=C(\C)c2ccc(NC(=O)c3ccccc3)cc2)s1	MCF7	MTT	–	10 µM	–	cytotoxicity	94.2%
